Measurements of several laboratories.
Each line is one published result; not all experiments were run side by side. “And” joins repeats or separate records; there may be more than shown. Numbers after ± are the reported error.

Structure (SMILES) = CCN(C(=O)c1cc(F)ccc1Oc1nncnc1N1CCC2(C1)CN([C@H](CCCN(C)CCOC)C(C)C)C2)C(C)C; cell line = JIMT-1; test = cell growth or viability; conditions = 7 days; quantity = GI50; value = > 10 µM
Structure (SMILES) = CN(C)c1ccc(-n2cc(COC(=O)[C@]3(C)C=C(C(=O)OC(C)(C)C)C(=O)CC3)nn2)cc1; cell line = HeLa; test = quantitative western blot; conditions = concentration not given, 0 (unit not given), together with: EGF; quantity = pRSK/tubulin ratio; value = 0.161
Structure (SMILES) = O=C(C[Se]C(=O)c1cccnc1Nc1cccc(C(F)(F)F)c1)Nc1cccc(C(F)(F)F)c1; cell line = NCI60 ovarian subpanel; test = total growth inhibition, inhibitor; conditions = five-dose; quantity = mean TGI; value = 3.8 µM
Structure (SMILES) = CC(C)c1ccc(N(C)c2ccc3c(c2)OCC[C@H]3CNc2cnccc2C(=O)O)cc1; cell line = MKN-1; test = cell growth or viability, ATP luminescence; conditions = 7 days; quantity = IC50; value = 0.00575 µM
Structure (SMILES) = O=C1C(Cl)=C(Cl)C(=O)c2c(O)ccc(O)c21; cell line = MOLT-3; test = XTT; how to read = relative to: IC50 MRC-5 over IC50 MOLT-3; quantity = selectivity index; value = 38.6
Structure (SMILES) = CNS(=O)(=O)Nc1nccc(Cc2c(C)c3ccc(Oc4ncccc4F)cc3oc2=O)c1F; cell line = MEG-01; test = cell viability; conditions = 7 days; quantity = IC50; value = > 1 µM
Structure (SMILES) = COC(=O)c1cc(NC2=NC(=O)C(=Cc3ccc(N(C)C)cc3)S2)ccc1OC(C)=O; cell line = MCF7; test = GC-MS, measured: Dodecanoic acid; conditions = 1 µM; how to read = relative to: DMSO; quantity = metabolite level; value = -0.44 fold change
Structure (SMILES) = CCOc1cncc(-c2ccc(NC(=O)C3(c4ccnc(NS(=O)(=O)C5CC5)n4)CCOCC3)nc2)n1; cell line = Daudi; test = cell growth or viability, ATP luminescence; conditions = 72 h; quantity = IC50; value = 0.111 µM
Structure (SMILES) = N#Cc1cccc(/C=C/C(=O)c2ccc(O)cc2)c1; cell line = U-87 MG; test = measured: KY; conditions = concentration not given; how to read = relative to: untreated; quantity = mRNA level; value = 0.033 fold
Structure (SMILES) = COc1ccccc1-c1ccncc1C(=O)Nc1nnc(OCc2ccc(Cl)cc2)s1; cell line = MDA-MB-436 BRCA1-mutant; test = colony formation; conditions = 0.375 µM; how to read = higher = more survival; quantity = colony count; value = 15 and 14.5 and 14
Structure (SMILES) = COP(=O)(OC)OC[C@H]1OC(O)(COP(=O)(OC)OC)[C@@H](O)[C@@H]1O (stereo partly drawn); cell line = HepG2 sgCTRL; test = CCK-8; conditions = concentration not given; how to read = relative to: control; quantity = cell proliferation; value = 83% and 53.7% and 70.1%
Structure (SMILES) = O=C(C[Se]C(=O)c1cc2ccccc2s1)Nc1cccc(C(F)(F)F)c1; cell line = NCI60 non-small-cell lung subpanel; test = cell growth; conditions = 10 µM, 48 h, one-dose; quantity = mean growth percent; value = -83.3%
Structure (SMILES) = COc1cccc(OC)c1-c1cc(C(=O)NC2(C(=O)O)C3CC4CC(C3)CC2C4)nn1-c1ccc(C(=O)N(C)CCCN(C)CCCN(C)C(=O)[C@H](CCCCNC(=O)[C@H](CC(C)C)NC(=O)C2OC2C(=O)O)NC(=O)CN2CCN(CC(=O)[O-])CCN(CC(=O)[O-])CCN(CC(=O)[O-])CC2)cc1C(C)C.[177Lu+3] (mixture of isomers); cell line = HT-29; conditions = concentration not given, 60 min; how to read = relative to: added activity; quantity = internalized fraction; value = 4.68 ± 0.54%
Structure (SMILES) = Cc1[nH]c(=S)[nH]c(=O)c1/N=N/c1nnc(S)s1; cell line = Vero; test = cell viability, MTT; conditions = 0.625 µg/mL; quantity = inhibition; value = 12.1 ± 1.25%
Structure (SMILES) = CO[C@@H]1[C@@H](OC(N)=O)[C@@H](O)[C@H](Oc2ccc3c(O)c(NC(=O)c4ccc(O)c(CC=C(C)C)c4)c(=O)oc3c2C)OC1(C)C; cell line = DLD-1 BRCA2-/-; conditions = 250 µM, replicate 1; quantity = colony count; value = 0.1
Structure (SMILES) = CCN1CCN(Cc2ccc(C(=O)Nc3ccc(C)c(NCc4cnc5[nH]ccc5c4OC)c3)cc2C(F)(F)F)CC1; cell line = SNU-1040; conditions = 1 µM, 3 days; how to read = relative to: vehicle, 100% DMSO; quantity = cell growth; value = 85%
Structure (SMILES) = CN1CCCNC(=O)c2cccc(c2)C(=O)NCCCN(C)CCCNc2cccc3c2C(=O)c2cccc(c2C3=O)NCCC1; cell line = SAS; test = RNA-Seq, measured: SAE1 mRNA; conditions = 1 µM, 6 h; how to read = relative to: untreated cells; quantity = log2 fold change; value = -0.543
Structure (SMILES) = CCN(CC)CC(=O)Nc1cccc(-n2cc(-c3ccc4ccc(-c5cn(-c6cccc(NC(=O)CN(CC)CC)c6)nn5)cc4c3)nn2)c1; cell line = RCC4; test = PCR angiogenesis array, measured: FGF2; conditions = 5 x IC50, 6 h, normoxia; how to read = relative to: untreated; quantity = fold regulation; value = -1.1
Structure (SMILES) = O=C(Nc1nnc2c1c(-c1ccc(Cl)cc1)nc1sc(=Cc3ccco3)c(=O)n12)c1ccccc1 (mixture of isomers); cell line = SF-539; test = SRB; conditions = 10 µM, NCI60 single-dose screen; how to read = relative to: untreated; quantity = cell growth; value = 46.4%
Structure (SMILES) = Cc1ncsc1-c1ccc(C(C)NC(=O)C2CC(O)CN2C(=O)C(NC(=O)CCCCCCCCCCN2CCCC(Nc3ncc(Cl)c(Nc4ccccc4S(=O)(=O)C(C)C)n3)C2)C(C)(C)C)cc1 (stereo not drawn); cell line = 22Rv1; test = RNA-seq, measured: NCR3LG1 mRNA; conditions = concentration not given; how to read = relative to: DMSO; quantity = log2 fold change; value = -1.38
Structure (SMILES) = Cn1ncc(-c2ccc3c(=O)[nH]nc(CN)c3c2)c1-c1c(F)c(Cl)cc(OC2CC2)c1C#N; cell line = HuT78; test = cell viability, inhibitor, CellTiter-Glo; conditions = 120 h, baseline-subtracted; quantity = IC50; value = 0.08 µM
Structure (SMILES) = Cn1ncc2cc(-c3cncc(Cl)c3N3CCC4(CCNC4=O)CC3)ccc21; cell line = LS174T; test = microarray, measured: AGT; conditions = concentration not given, 24 h; how to read = relative to: untreated cells; quantity = fold change in expression; value = 2.17
Structure (SMILES) = CC(=O)OC[C@H]1O[C@@H](n2cc(CSc3nc4ccccc4n3Cc3cn([C@@H]4O[C@H](COC(C)=O)[C@@H](OC(C)=O)C(OC(C)=O)[C@H]4OC(C)=O)nn3)nn2)[C@H](OC(C)=O)C(OC(C)=O)[C@@H]1OC(C)=O (stereo in doubt); cell line = HEK293; test = MTT; conditions = 250 ppm; quantity = cytotoxicity; value = 86.4%
Structure (SMILES) = O=C(C[Se]C(=O)c1cc2ccccc2[nH]1)Nc1cccc(C(F)(F)F)c1; cell line = NCI60 non-small-cell lung subpanel; test = cell growth; conditions = 10 µM, 48 h, one-dose; quantity = mean growth percent; value = -84.2%
Structure (SMILES) = CC[C@H](CO)Nc1nc(NCc2ccc(-c3ccccn3)cc2)c2ncn(C(C)C)c2n1; cell line = MOLT-4; test = tandem mass tag proteomics, measured: P11926; conditions = 1 µM, 1 h; how to read = relative to: DMSO; quantity = log2 fold change; value = -2.42
Structure (SMILES) = O=C(NCc1cc(F)cc(F)c1)[C@@]1(O)CCN(c2ccc3[nH]ccc3c2)C1=O; cell line = MAXF 1384 breast cancer cells; test = colony formation, soft agar clonogenic; conditions = concentration not given; quantity = efficacy; value = 50%
Structure (SMILES) = COc1ccccc1[C@H](Cn1c(=O)n(C(C)(C)C(N)=O)c(=O)c2c(C)c(-c3ncco3)sc21)OC1CCOCC1; cell line = NCI-H1355; test = cell proliferation, inhibitor; conditions = 168 h; quantity = EC50; value = 0.058 µM
Structure (SMILES) = COc1ccc2c(c1)c(CC(=O)[Se]CC(=O)Nc1cccc(C(F)(F)F)c1)c(C)n2C(=O)c1ccc(Cl)cc1; cell line = NCI60 ovarian subpanel; test = total growth inhibition, inhibitor; conditions = five-dose; quantity = mean TGI; value = 4.06 µM
Structure (SMILES) = CCCC(CCC)C(=O)OCc1cn(-c2cc3ccccc3oc2=O)nn1; cell line = UACC-62; test = NCI60 single-dose screen; conditions = 10 µM; quantity = growth percentage; value = 92.5%
Structure (SMILES) = O=C(C[Se]C(=O)c1ccc2ccccc2c1)Nc1cccc(C(F)(F)F)c1; cell line = NCI60 ovarian subpanel; test = cell growth, inhibitor; conditions = five-dose; quantity = GI50; value = 1.74 µM
Structure (SMILES) = [Cl-].[Cl-].[Ru+2].c1ccc(-c2ccccn2)nc1.c1ccc(-c2ccccn2)nc1.c1ccc2cc3nc4c5cccnc5c5ncccc5c4nc3cc2c1; cell line = SK-MEL-28; test = cell growth, SRB; conditions = dark, normoxia; quantity = GI50; value = 30.2 µM
Structure (SMILES) = CC(=O)Oc1ccccc1C(=O)[Se]CC(=O)Nc1cccc(C(F)(F)F)c1; cell line = NCI60 ovarian subpanel; test = total growth inhibition, inhibitor; conditions = five-dose; quantity = mean TGI; value = 16.4 µM
Structure (SMILES) = Nc1ncn([C@@H]2O[C@H](CO)[C@@H](O)[C@H]2O)c(=O)n1; cell line = AML blasts, primary, RUNX1-mutated; test = CD34+ blast expansion; conditions = 30 nM, HUVEC co-culture; quantity = inhibition; value = 0%

Excerpt of the above:
Structure (SMILES) = CCCC(CCC)C(=O)OCc1cn(-c2cc3ccccc3oc2=O)nn1; cell line = UACC-62; test = NCI60 single-dose screen; conditions = 10 µM; quantity = growth percentage; value = 92.5%
Structure (SMILES) = N#Cc1cccc(/C=C/C(=O)c2ccc(O)cc2)c1; cell line = U-87 MG; test = measured: KY; conditions = concentration not given; how to read = relative to: untreated; quantity = mRNA level; value = 0.033 fold
Structure (SMILES) = COC(=O)c1cc(NC2=NC(=O)C(=Cc3ccc(N(C)C)cc3)S2)ccc1OC(C)=O; cell line = MCF7; test = GC-MS, measured: Dodecanoic acid; conditions = 1 µM; how to read = relative to: DMSO; quantity = metabolite level; value = -0.44 fold change
Structure (SMILES) = Cn1ncc(-c2ccc3c(=O)[nH]nc(CN)c3c2)c1-c1c(F)c(Cl)cc(OC2CC2)c1C#N; cell line = HuT78; test = cell viability, inhibitor, CellTiter-Glo; conditions = 120 h, baseline-subtracted; quantity = IC50; value = 0.08 µM
Structure (SMILES) = CC(=O)Oc1ccccc1C(=O)[Se]CC(=O)Nc1cccc(C(F)(F)F)c1; cell line = NCI60 ovarian subpanel; test = total growth inhibition, inhibitor; conditions = five-dose; quantity = mean TGI; value = 16.4 µM
